Assay results gathered from unrelated publications.
Each numbered part is a random draw from the data of one study; scales do not carry over between parts. Positions count from the first letter of the parent shown.

Study 1
Target: Centromere-binding protein 1, full length, His-tagged (CBF1, Saccharomyces cerevisiae, UniProt P17106, residues 1-351)
Chain of UniProt P17106 (whole entry, looked up): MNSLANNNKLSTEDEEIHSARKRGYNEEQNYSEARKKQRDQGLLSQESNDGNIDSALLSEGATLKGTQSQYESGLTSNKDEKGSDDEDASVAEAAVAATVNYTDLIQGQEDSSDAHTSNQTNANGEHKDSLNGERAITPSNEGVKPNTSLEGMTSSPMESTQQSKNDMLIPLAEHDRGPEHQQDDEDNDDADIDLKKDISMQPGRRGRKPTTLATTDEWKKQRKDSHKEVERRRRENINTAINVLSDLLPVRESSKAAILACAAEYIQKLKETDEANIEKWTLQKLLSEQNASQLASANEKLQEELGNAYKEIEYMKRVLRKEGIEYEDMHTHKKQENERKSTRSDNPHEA
Method: competition protein-binding microarray
Molecule type: double-stranded DNA, one strand shown
Sample: in vitro
Concentration: 2 µM
Setting: whole 60-bp probe, lowest competitor level
With: Pho4 competitor, 0.05 µM
Reading: higher = stronger binding
Shared flanks, not repeated: … GTCTTGATTCGCTTGACGCTGCTG
With `ACAGTTTCCCACTGTCACACTTCACTGTTGCATACT` the fluorescence intensity was 98.2 a.u.
The fluorescence intensity of `GAGGCTTTCGATTACCATGTGCAATCTGTCTATGAA` is reported as 129 a.u.
`TGCGCAACAACTTGAATCGTGGGTGTATGTCTAGAA` gave a fluorescence intensity of 71 a.u.
For `CTACGCCGCTATTACTACGTGCTTTTTCTTTTGATT`, the fluorescence intensity was 85.9 a.u.
For `TACTTAATAATCGACCACGTTTCAAATTCAATAATG`, the fluorescence intensity was 228 a.u.
With `CTTTCATCATATTTTCATGTGTCAGAAATAACACCG` the fluorescence intensity was 117 a.u.
With `TTACAGGTCGTCTTCCACGTGGTGAGTATCAAAGTA` the fluorescence intensity was 773 a.u.
With `CTTTCCCGATCTTGAAGCGTGGGTGTAGCACATTTG` the fluorescence intensity was 70.5 a.u.

Study 2
Target: Eukaryotic initiation factor 4A-I (EIF4A1, Homo sapiens, UniProt P60842, residues 1-406, full length assumed)
Chain of UniProt P60842 (whole entry, looked up): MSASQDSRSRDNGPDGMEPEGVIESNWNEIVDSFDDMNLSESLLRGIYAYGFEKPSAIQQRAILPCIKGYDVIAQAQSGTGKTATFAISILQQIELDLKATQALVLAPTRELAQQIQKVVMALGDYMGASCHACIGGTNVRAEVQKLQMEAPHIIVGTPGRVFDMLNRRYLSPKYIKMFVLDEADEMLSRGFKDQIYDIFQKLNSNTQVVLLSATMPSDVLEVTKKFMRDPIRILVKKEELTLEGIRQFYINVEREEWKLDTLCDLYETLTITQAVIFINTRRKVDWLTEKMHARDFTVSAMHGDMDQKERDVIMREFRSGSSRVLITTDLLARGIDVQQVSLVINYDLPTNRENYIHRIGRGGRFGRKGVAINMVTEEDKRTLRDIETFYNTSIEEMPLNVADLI
Method: RNA Bind-n-Seq
Molecule type: RNA
Sample: in vitro
Concentration: 90 pmol
Setting: 4-mer, random 30-nt RNA, single round
With: 3 µM DMDA-PatA, 2 mM ADP, 2 mM phosphate
Baseline: input library
Reading: higher = stronger binding
The 4-mer enrichment of `CCUA` is reported as 0.583 fold.
With `UUCA` the 4-mer enrichment was 0.816 fold.
The 4-mer enrichment of `CUGG` is reported as 0.714 fold.
With `CAAG` the 4-mer enrichment was 0.983 fold.
`UCGA` has a 4-mer enrichment of 0.666 fold.
For `GGAG`, the 4-mer enrichment was 1.54 fold.
`GAUG` gave a 4-mer enrichment of 1.05 fold.
With `GGGA` the 4-mer enrichment was 1.19 fold.

Single results of other studies
P1: viral docking peptide; CKVKRKLFGSENI; partner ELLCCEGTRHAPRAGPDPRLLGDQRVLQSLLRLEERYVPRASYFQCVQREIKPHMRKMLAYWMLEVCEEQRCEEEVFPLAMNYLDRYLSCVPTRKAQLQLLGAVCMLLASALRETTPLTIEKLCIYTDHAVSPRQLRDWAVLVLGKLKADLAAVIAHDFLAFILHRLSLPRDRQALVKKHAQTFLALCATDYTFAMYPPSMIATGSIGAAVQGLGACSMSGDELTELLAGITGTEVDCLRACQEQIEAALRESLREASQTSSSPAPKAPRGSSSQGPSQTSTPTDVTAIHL
`SF3B1 (Homo sapiens, UniProt O75533)` — result for cross-linked residues: “K413 to K29” (SF3B6 (Homo sapiens, UniProt Q9Y3B4); cross-linking MS; cells; with: BSPNO).
`YMKFFGNFK`: binding “inactive” (HLA class I histocompatibility antigen, A alpha chain, allele A*80:01 (Homo sapiens, UniProt P04439); peptide-MHC binding; peptide; concentration not given).
`P1 C1A`: “normalised enrichment score” 0.087 (CCND3, cyclin fold, Cln2 fusion (human); yeast growth competition, sequencing; yeast; weak parent motif; baseline: not given, higher = stronger binding).
